Measured values from different studies.
Numbered parts are unrelated; each lists some results of a single study. Positions count from the first letter of the parent shown.
UniProt Q7Z7E8, sequence (whole entry, looked up): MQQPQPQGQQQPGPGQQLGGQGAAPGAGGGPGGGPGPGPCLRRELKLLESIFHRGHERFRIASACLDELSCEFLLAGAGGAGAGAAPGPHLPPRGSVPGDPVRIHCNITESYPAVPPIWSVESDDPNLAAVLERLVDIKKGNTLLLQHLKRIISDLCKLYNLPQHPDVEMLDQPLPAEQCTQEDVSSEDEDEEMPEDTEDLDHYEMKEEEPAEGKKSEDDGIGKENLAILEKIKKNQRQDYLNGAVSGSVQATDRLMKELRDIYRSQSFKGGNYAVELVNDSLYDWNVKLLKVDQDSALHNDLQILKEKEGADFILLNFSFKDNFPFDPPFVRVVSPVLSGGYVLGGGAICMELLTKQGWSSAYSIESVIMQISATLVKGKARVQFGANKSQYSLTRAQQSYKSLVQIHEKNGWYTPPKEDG
UniProt Q969T4, sequence (whole entry, looked up): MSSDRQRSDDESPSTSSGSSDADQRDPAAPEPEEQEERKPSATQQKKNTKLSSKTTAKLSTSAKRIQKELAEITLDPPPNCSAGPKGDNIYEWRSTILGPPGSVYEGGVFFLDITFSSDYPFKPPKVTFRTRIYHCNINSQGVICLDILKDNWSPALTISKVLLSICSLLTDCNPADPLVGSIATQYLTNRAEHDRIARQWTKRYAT
UniProt Q9Y385, sequence (whole entry, looked up): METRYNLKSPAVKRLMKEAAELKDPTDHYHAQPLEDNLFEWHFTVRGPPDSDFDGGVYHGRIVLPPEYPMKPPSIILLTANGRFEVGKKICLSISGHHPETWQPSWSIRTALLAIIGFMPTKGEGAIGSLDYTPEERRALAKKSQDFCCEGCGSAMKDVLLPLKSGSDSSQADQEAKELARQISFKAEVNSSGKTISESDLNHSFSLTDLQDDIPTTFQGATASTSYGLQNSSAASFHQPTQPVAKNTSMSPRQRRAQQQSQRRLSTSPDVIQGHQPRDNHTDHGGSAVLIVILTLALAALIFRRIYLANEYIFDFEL
UniProt P63146, sequence (whole entry, looked up): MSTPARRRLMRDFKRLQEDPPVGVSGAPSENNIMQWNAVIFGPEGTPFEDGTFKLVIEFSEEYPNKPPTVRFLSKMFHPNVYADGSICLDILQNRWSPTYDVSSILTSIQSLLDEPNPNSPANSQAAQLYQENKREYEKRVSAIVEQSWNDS
UniProt Q9NPD8, sequence (whole entry, looked up): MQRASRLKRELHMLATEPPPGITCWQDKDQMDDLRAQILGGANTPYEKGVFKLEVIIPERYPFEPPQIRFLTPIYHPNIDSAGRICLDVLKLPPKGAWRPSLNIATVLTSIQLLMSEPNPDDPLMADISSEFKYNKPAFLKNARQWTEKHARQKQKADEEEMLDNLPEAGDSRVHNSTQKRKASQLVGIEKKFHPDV
UniProt O00762, sequence (whole entry, looked up): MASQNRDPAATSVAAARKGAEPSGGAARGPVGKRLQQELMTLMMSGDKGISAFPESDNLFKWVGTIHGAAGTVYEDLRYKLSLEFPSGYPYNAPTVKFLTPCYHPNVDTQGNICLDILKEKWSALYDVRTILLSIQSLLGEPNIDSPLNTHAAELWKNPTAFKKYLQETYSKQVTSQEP
UniProt Q9H832, sequence (whole entry, looked up): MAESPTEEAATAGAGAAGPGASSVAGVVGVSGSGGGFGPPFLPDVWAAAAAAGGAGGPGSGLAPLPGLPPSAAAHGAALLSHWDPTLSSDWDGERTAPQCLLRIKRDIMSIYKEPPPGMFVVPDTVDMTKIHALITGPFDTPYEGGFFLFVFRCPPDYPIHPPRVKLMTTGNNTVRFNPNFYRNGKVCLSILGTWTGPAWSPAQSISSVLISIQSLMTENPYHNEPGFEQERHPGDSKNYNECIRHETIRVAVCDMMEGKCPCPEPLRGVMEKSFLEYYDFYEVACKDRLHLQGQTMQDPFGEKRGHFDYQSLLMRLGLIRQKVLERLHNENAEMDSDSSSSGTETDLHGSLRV
UniProt P68036, sequence (whole entry, looked up): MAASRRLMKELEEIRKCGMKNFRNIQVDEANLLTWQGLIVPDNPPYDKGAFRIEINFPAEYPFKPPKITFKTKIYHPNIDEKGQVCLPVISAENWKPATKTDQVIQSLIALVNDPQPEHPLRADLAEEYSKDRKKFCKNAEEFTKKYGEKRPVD
UniProt Q9C0C9, sequence (whole entry, looked up): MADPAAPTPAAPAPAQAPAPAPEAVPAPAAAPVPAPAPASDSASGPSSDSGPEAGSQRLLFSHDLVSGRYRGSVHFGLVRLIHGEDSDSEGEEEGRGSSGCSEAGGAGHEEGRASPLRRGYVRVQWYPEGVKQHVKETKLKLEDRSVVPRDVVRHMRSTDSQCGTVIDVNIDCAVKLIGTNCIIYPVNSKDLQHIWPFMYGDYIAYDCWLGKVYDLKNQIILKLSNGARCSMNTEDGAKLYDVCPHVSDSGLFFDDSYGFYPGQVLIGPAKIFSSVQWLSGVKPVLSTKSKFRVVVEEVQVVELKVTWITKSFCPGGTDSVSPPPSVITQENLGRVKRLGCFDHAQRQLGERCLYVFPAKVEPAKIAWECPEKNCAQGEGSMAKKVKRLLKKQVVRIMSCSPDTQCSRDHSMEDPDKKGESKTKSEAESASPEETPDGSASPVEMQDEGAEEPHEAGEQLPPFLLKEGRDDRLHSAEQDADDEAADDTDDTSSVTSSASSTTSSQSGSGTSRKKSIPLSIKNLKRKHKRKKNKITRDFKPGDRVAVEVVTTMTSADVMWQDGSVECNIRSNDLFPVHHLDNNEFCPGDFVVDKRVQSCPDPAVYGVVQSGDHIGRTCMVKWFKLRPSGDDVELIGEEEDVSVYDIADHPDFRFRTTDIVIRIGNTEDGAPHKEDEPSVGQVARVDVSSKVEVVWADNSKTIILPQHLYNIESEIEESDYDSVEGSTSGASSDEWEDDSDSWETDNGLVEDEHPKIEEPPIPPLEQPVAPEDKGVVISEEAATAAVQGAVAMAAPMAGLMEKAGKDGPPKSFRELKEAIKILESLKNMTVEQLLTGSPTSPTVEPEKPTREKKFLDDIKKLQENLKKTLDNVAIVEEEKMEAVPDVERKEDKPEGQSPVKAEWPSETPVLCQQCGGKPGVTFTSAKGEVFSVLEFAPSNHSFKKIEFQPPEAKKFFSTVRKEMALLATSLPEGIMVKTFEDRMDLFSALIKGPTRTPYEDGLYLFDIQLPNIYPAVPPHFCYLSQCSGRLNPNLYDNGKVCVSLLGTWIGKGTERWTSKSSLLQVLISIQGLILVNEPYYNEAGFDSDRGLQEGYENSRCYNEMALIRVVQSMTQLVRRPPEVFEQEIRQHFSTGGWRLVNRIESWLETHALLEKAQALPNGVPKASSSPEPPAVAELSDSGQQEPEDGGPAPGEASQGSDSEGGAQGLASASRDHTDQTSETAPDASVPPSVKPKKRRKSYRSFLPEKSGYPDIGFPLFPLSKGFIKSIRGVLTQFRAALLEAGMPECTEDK
UniProt P61081, sequence (whole entry, looked up): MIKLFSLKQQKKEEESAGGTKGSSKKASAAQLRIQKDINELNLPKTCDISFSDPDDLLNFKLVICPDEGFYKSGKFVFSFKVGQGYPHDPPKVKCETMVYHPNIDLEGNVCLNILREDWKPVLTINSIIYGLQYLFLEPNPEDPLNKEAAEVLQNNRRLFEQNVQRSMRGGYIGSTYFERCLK

Block 1 — Sequence: B1 (RNF6 RING domain); technique: yeast two-hybrid; matrix: yeast; setting: mostly zero background; relative to: not given; direction: higher = stronger interaction
B1: RNF6 RING domain (UniProt Q9Y252); chain NSIDSELGKICSVCISDYVTGNKLRQLPCMHEFHIHCIDRWLSENCTCPICRQPVLGSNIAN
target | lacZ reporter activity
UBE2I UBC core domain (UniProt P63279) | 0
UBE2C UBC core domain (UniProt O00762) | 0
UBE2Q1 UBC core domain (UniProt Q7Z7E8) | 0
UBE2Z UBC core domain (UniProt Q9H832) | 0
UBE2L3 UBC core domain (UniProt P68036) | 0
UBE2T UBC core domain (UniProt Q9NPD8) | 0
UBE2J1 UBC core domain (UniProt Q9Y385) | 0
UBE2O UBC core domain (UniProt Q9C0C9) | 0
UBE2E3 UBC core domain (UniProt Q969T4) | 0
UBE2B UBC core domain (UniProt P63146) | 0
UBE2M UBC core domain (UniProt P61081) | 0

Block 2 — target: CCNA1, cyclin fold, Cln2 fusion (human); technique: yeast growth competition, sequencing; matrix: yeast; setting: weak parent motif; relative to: not given; direction: higher = stronger binding
Parent: RB1 docking peptide (human); PKPLKKLRFDIEG
Substitution | normalised enrichment score
PKPLKKLRFDIEH [G13H] | 0.433
PKPLKKWRFDIEG [L7W] | 0.45
PKPLKKLRFDIEQ [G13Q] | 0.391
PKPSKKLRFDIEG [L4S] | 0.406
PKPLKKKRFDIEG [L7K] | 0.475
PKPKKKLRFDIEG [L4K] | -0.228
PKPLKKLRFGIEG [D10G] | 1.11
PKPLKKLRFDIEL [G13L] | 0.349
PKPLKKLMFDIEG [R8M] | 0.245
PKPLKKLRFDIYG [E12Y] | 0.562
PKPLIKLRFDIEG [K5I] | 0.26
PHPLKKLRFDIEG [K2H] | 0.16
PRPLKKLRFDIEG [K2R] | 0.443
VKPLKKLRFDIEG [P1V] | 0.426
PKPLPKLRFDIEG [K5P] | 0.278
PKPLKKDRFDIEG [L7D] | -0.119
PKPWKKLRFDIEG [L4W] | 0.034
PKPLKKQRFDIEG [L7Q] | 0.126
FKPLKKLRFDIEG [P1F] | 0.658

Block 3 — technique: competition protein-binding microarray; molecule type: double-stranded DNA, one strand shown; matrix: in vitro; concentration: 2 µM; together with: Pho4 competitor, 0.05 µM; direction: higher = stronger binding; constant ends, left off below: … GTCTTGATTCGCTTGACGCTGCTG
Target: Centromere-binding protein 1, full length, His-tagged (CBF1, Saccharomyces cerevisiae, UniProt P17106, residues 1-351)
UniProt P17106, sequence (whole entry, looked up): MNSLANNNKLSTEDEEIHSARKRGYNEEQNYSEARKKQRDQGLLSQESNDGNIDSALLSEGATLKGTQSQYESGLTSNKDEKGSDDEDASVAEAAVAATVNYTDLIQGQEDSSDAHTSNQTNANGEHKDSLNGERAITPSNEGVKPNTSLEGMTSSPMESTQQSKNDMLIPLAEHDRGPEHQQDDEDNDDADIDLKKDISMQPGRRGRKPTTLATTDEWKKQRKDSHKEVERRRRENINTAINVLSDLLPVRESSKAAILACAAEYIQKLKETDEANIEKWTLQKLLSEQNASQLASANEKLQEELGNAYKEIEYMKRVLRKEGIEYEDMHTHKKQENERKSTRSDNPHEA
Setting: whole 60-bp probe, lowest competitor level
Oligonucleotide | fluorescence intensity [a.u.]
CAGAATTTAGGCCTACACGATGGATGAAAAGGTGTA | 65.9
CTCTGCCCTGCTTAGCACGTAGAAGGTCTCCGGCTG | 55.4
GAGTCGTCATCCAACCTCGTGATGGAGGTTTTCAGT | 306
CATACCCAACCTTGTGAGGTGGGTGAAGATATTTGT | 61
GTCTTGTCTCATTGCGATGTGGGTGTCCCCACTTCA | 72.1
TGCGCAACAACTTGGCTAGTGGGTGTATGTCTAGAA | 48.9
CTTCTGTAAATTTGCAAAGTGGGTGGACGCGCCCCG | 97.3
TCGATGTCAAAAAATCTCGTGAGACCTCCGGAATTT | 124
ACTCCATATCCTTATCATGTGCCGTAGTACATTGTG | 519
TGTAGCGCCAACCAACACGTGCAAATTTCCATCATC | 1380
TCCAGAACTTTTAAGCGCGTGTTCCAGGCGTTGCCG | 69.7
CATACCCAACCTTGCCCTGTGGGTGAAGATATTTGT | 60.9
TTCTTTGCCCTCTTGCTCGTGTGGATTCCTTTCCGC | 71.3
GGATGAAAAACATAAAATGTGACGGATAGTGCCACC | 86.7
GTCTTGTCTCATTGGAGTGTGGGTGTCCCCACTTCA | 65.1
CTTCTGTAAATTTGTCACATAACTTGACGCGCCCCG | 85.5
CTCTTCCCTCTATTTCACGTGAGTAAGCACAGAATA | 1060
ATGAATACACTTTGAAACGTGACGGTGCCATCGATG | 382
AAGCCTTTGGAACGCCATGTGTAAGGTGCAATGGAC | 89.3

Block 4 — technique: DHFR PCA, deep sequencing; matrix: yeast; together with: (+)-ABA 2500 µM; relative to: wild-type fitted maximum; direction: higher = stronger binding
Target: ABI1, truncated, D143A, DHFR fusion (Arabidopsis thaliana)
Setting: methotrexate growth selection, single substitutions
Parent: PYL1, truncated, DHFR fusion (Arabidopsis thaliana); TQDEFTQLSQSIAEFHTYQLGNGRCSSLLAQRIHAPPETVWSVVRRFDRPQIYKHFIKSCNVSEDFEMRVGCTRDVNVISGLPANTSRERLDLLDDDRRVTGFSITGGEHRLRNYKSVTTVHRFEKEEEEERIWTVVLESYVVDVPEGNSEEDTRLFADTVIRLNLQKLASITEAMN; partner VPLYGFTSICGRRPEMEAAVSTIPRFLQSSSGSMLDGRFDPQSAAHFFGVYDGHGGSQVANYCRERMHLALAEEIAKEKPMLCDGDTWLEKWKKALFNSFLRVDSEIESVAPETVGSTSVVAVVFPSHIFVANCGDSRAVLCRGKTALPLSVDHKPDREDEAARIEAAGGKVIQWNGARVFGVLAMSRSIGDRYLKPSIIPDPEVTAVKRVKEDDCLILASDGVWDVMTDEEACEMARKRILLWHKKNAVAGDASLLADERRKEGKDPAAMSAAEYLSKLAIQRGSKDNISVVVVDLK
Substitution | relative binding score
A175Q | 97.7%
S140I | 0.0645%
R98W | 87.3%
I162C | 87.8%
S80Y | 85.8%
M176D | 104%
E174K | 90.2%
T173C | 100%
D96G | 84%
V44S | 53.9%
S171Y | 91%
G81Y | 67.9%
D65Q | 97.3%
R132M | 101%
A30P | 86.6%

Excerpt of the above (block 2):
Substitution | normalised enrichment score
PKPKKKLRFDIEG [L4K] | -0.228
PKPLKKLRFDIEQ [G13Q] | 0.391
VKPLKKLRFDIEG [P1V] | 0.426
PKPLKKDRFDIEG [L7D] | -0.119
PKPLKKLRFDIEL [G13L] | 0.349
